Measured values pooled from the literature.
Compare with care: the assays were run in different laboratories. ± gives the spread as reported. Non-standard residues stand in square brackets, D forms with d. No end group written: not given here. *: point of attachment.
CNR1: Cannabinoid receptor 1 (CNR1, Homo sapiens, UniProt P21554)
UniProt P21554, sequence (whole entry, looked up): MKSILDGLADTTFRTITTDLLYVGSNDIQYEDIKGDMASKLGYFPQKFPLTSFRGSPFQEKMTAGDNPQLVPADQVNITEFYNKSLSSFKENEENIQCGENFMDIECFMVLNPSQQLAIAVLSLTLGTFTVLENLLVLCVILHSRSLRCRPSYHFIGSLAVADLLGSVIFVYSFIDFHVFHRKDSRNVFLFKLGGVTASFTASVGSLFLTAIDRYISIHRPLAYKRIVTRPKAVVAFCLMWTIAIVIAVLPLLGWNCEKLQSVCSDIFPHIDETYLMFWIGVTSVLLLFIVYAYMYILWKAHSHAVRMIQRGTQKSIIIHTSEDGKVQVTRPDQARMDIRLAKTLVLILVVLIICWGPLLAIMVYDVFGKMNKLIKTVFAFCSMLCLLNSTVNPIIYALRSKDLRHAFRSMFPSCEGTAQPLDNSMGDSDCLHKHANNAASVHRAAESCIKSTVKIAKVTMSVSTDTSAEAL
KCNMA1 with beta-3 subunit: Calcium-activated potassium channel subunit alpha-1, with beta-3 subunit (KCNMA1, Homo sapiens, UniProt Q12791)
UniProt Q12791, sequence (whole entry, looked up): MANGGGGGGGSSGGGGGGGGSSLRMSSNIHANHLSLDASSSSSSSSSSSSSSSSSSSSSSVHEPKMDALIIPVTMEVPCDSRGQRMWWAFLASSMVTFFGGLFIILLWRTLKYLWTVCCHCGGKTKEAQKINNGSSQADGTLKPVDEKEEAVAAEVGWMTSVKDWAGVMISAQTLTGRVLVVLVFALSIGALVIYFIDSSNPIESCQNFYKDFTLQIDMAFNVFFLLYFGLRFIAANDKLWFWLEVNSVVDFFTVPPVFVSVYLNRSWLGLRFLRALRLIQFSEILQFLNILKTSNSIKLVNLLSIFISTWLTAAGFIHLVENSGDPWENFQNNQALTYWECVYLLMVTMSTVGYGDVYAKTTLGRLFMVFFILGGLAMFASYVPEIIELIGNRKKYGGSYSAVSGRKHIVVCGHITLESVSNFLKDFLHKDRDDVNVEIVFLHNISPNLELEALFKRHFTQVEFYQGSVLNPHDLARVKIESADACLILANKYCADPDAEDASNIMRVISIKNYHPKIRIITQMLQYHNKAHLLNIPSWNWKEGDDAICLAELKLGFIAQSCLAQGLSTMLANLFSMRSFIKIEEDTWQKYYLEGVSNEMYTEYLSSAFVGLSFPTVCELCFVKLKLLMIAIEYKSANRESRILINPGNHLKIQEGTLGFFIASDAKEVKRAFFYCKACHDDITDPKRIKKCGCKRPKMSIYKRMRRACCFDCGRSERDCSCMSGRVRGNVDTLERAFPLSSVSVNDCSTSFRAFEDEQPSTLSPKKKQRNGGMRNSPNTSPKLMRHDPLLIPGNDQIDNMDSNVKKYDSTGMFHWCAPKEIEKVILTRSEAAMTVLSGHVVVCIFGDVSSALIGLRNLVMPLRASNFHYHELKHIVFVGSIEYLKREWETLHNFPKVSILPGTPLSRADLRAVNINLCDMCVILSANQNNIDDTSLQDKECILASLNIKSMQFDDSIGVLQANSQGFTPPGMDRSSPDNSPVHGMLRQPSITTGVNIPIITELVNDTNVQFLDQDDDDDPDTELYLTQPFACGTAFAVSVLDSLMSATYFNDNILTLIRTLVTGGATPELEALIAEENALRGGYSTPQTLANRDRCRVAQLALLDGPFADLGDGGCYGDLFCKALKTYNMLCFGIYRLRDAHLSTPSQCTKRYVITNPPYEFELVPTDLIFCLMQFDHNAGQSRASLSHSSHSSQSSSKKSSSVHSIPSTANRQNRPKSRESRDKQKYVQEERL
Ryanodine receptor 1: Ryanodine receptor 1 (Oncorhynchus mykiss, UniProt A0A8C7UX14)
B1: N-acetyl, Nle1, C-ACC; Nle = CCCC[C@H](N)C(=O)O; ACC = NC(=O)Cc1cc(=O)oc2cc(N*)ccc12; chain Ac-[Nle]KPR-{ACC} (SMILES CCCC[C@H](NC(C)=O)C(=O)N[C@@H](CCCCN)C(=O)N1CCC[C@H]1C(=O)N[C@@H](CCCNC(=N)N)C(=O)Nc1ccc2c(CC(N)=O)cc(=O)oc2c1)
UniProt P18508, sequence (whole entry, unmodified, looked up): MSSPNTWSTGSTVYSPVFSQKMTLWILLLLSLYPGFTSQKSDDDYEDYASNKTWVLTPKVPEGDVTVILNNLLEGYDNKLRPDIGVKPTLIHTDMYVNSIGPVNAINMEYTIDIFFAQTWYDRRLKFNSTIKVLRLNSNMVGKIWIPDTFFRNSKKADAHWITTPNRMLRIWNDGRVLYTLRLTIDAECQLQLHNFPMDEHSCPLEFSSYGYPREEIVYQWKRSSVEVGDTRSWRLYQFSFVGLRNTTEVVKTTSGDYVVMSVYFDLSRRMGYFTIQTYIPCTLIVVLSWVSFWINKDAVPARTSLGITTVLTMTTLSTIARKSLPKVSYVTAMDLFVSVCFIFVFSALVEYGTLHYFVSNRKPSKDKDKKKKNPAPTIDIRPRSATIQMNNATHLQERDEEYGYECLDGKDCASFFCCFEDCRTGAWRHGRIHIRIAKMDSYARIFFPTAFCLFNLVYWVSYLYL
UniProt P41143, sequence (whole entry, looked up): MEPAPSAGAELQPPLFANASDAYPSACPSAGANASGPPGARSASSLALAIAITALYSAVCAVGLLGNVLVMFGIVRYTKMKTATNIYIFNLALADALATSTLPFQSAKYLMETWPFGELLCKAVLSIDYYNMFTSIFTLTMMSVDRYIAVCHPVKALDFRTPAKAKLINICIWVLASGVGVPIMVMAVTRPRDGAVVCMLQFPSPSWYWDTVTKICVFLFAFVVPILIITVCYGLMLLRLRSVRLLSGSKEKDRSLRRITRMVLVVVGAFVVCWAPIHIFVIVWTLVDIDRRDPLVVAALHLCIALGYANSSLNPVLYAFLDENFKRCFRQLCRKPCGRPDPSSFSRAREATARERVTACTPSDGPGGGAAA
UniProt P47870, sequence (whole entry, unmodified, looked up): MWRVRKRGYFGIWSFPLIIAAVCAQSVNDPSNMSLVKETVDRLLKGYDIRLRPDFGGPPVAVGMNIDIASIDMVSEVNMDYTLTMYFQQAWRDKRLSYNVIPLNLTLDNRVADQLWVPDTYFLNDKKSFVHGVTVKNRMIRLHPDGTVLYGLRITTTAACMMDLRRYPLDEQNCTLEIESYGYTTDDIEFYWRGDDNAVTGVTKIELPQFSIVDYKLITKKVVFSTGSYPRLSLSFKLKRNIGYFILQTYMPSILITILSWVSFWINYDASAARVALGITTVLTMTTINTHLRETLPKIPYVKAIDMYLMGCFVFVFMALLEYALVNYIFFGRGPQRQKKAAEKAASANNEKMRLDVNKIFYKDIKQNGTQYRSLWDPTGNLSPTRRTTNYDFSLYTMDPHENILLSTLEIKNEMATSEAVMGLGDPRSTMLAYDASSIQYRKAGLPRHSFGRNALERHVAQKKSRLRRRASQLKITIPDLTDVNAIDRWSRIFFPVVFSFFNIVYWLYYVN
UniProt Q7Z1V1, sequence (whole entry, looked up): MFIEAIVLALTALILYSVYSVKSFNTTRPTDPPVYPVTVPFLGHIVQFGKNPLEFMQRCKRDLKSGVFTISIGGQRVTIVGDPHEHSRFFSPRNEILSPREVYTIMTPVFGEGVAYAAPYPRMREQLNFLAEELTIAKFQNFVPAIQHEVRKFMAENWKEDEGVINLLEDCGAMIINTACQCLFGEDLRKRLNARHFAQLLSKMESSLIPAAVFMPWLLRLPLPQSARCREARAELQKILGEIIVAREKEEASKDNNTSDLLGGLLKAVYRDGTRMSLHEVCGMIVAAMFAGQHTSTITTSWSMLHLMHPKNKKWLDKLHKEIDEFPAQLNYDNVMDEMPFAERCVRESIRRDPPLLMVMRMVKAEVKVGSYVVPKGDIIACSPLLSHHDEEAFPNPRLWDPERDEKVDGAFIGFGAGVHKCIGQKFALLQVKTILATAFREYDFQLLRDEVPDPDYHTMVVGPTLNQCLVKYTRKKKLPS
UniProt P30191, sequence (whole entry, looked up): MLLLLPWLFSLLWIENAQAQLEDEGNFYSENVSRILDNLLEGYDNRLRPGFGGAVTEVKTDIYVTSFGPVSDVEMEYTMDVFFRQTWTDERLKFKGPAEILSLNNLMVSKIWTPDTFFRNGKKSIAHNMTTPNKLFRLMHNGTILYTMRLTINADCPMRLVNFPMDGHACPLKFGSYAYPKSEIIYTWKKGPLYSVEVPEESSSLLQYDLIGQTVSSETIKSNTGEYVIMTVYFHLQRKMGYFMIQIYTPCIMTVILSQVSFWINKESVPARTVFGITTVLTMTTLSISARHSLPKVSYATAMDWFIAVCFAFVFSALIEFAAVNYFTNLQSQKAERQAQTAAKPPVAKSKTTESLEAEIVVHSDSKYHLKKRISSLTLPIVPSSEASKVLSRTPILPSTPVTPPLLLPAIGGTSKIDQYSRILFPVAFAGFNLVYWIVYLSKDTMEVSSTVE
UniProt P0A6Y8, sequence (whole entry, looked up): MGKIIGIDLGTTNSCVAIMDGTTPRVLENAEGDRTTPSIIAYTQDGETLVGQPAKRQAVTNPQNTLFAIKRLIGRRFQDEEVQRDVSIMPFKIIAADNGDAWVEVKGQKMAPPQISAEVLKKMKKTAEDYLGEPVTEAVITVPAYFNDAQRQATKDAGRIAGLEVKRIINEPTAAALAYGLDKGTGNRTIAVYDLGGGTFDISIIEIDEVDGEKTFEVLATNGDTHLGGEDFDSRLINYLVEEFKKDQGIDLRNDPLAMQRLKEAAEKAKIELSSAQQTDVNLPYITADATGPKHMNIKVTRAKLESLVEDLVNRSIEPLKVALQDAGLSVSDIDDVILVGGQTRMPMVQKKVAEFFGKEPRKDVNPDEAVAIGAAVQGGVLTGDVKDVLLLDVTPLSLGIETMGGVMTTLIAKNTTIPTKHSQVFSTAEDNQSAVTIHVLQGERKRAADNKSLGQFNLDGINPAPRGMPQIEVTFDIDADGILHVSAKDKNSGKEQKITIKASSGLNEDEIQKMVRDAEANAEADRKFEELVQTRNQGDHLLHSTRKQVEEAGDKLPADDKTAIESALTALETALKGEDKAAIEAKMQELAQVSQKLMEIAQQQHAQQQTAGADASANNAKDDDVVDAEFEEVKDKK
UniProt Q9H008, sequence (whole entry, looked up): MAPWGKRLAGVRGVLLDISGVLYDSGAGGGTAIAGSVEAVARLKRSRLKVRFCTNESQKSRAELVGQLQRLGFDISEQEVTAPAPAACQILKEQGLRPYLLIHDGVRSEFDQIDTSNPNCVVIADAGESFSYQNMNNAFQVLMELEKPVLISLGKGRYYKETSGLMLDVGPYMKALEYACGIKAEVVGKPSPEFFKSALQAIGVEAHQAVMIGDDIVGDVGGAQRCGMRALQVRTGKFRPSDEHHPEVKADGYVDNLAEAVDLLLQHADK

| Molecule | target | assay | test system | setting | scale | measurement | result |
| --- | --- | --- | --- | --- | --- | --- | --- |
| CC(C)C[C@H](NC(=O)[C@H](CCCCN)NC(=O)[C@H](CCCCN)NC(=O)CNC(=O)[C@H](CCCNC(=N)N)NC(=O)[C@@H](N)CCCNC(=N)N)C(=O)N[C@@H](CC(C)C)C(=O)N[C@@H](CC(C)C)C(=O)N[C@@H](CC(C)C)C(=O)N[C@@H](CC(C)C)C(=O)N[C@@H](CCCCN)C(=O)N[C@@H](CCCCN)C(=O)N[C@@H](CCCCN)C(=O)NCC(=O)N[C@@H](CSC1CC(=O)N(CCCCCNC(=O)c2ccc(-c3c4ccc(=N)c(S(=O)(=O)O)c-4oc4c(S(=O)(=O)O)c(N)ccc34)c(C(=O)O)c2)C1=O)C(=O)O (stereo partly shown) | dnaK, ADP-bound (Escherichia coli, UniProt P0A6Y8) | binding, fluorescence anisotropy competition | – | excess competitor | – | fraction remaining bound | ~25% |
| FLPK(Fmoc)-OH (Lys(Fmoc), C-acid; Fmoc = O=C(OCC1c2ccccc2-c2ccccc21)*) | Fibroblast growth factor 14, with Nav1.6 (Homo sapiens, UniProt Q92915) | FGF14-Nav1.6 complex formation, split-luciferase complementation | HEK293 expressing CLuc-FGF14 and CD4-Nav1.6-NLuc | 50 µM, 1 h, 37 °C, 0.5% DMSO | reference: DMSO | luminescence | 129 ± 13% |
| NC(=O)N1CCC[C@H](CNC(=O)c2nn(Cc3ccc(F)cc3)c3ccccc23)C1 | CNR1 | calcium mobilization, agonist | CHO-K1 expressing Gαq16 | – | reference: CP55,940 maximum | Emax | 91 ± 4% |
| N[C@@H](Cc1ccc(OP(=O)(O)O)cc1)C(=O)O | Phospholysine phosphohistidine inorganic pyrophosphate phosphatase (LHPP, Homo sapiens, UniProt Q9H008) | substrate, absorbance | – | 100 µM, 90 min, pH 7.8 | – | substrate hydrolysis | 4.81% |
| O[C@@H](CN1CC[C@H](CCOC(c2ccccc2)c2ccccc2)[C@@H](O)C1)c1ccccc1 | Sodium-dependent dopamine transporter (Slc6a3, Rattus norvegicus, UniProt P23977) | dopamine uptake, inhibitor | rat striatum | with: [3H]dopamine | – | Ki | 0.0184 µM |
| CC(C)(C)OC(=O)c1ncn2c1[C@@H]1CCCN1C(=O)c1c(Br)cccc1-2 | Gabrg2/Gabra6, with β3 subunit (Rattus norvegicus, UniProt P18508+P30191) | GABA-induced chloride current, two-electrode voltage clamp | Xenopus oocytes | rat α6β3γ2 receptor, with: GABA EC3 | reference: GABA EC3 alone | Emax | 231 ± 13% |
| CC(C)(NC(=O)c1nn(CCC2CCCC2)c2ccccc12)c1cccc(C(N)=O)c1 | CNR1 | calcium mobilization, agonist | CHO-K1 expressing Gαq16 | – | reference: CP55,940 maximum | Emax | 51 ± 1% |
| CCOc1ccccc1S(=O)(=O)N1CC(c2nc(-c3ccc(F)cc3Cl)no2)C1 | KCNMA1 with beta-3 subunit | – | HEK293 | 30 µM | – | activity | inactive |
| O=C1c2c(O)ccc(O)c2C(=O)c2c(NCCNCCO)ccc(NCCNCCO)c21 | sfp (Bacillus subtilis, UniProt P39135) | enzyme activity | – | concentration not given, pH 7.6 | – | activity | inactive |
| Cc1cccc(Oc2ccc(C(=O)N[C@H](CN3CCN(c4cccc(O)c4)[C@@H](C)C3)C(C)C)cc2)c1 | Delta-type opioid receptor (OPRD1, Homo sapiens, UniProt P41143) | antagonist | CHO | with: DPDPE | – | Ke | 131 ± 44 nM |
| CC(C)(NC(=O)c1nn(CC2CCC(F)(F)CC2)c2ccccc12)c1cccc(C(N)=O)c1 | CNR1 | calcium mobilization, agonist | CHO-K1 expressing Gαq16 | – | reference: CP55,940 maximum | Emax | 86 ± 5% |
| CC(=O)N[C@H]1[C@H](OCCN)O[C@H](CO)[C@@H](O[C@@H]2O[C@H](CO)[C@H](O)[C@H](O)[C@H]2NC(C)=O)[C@@H]1O | Agglutinin (Sclerotinia sclerotiorum, UniProt A7XUK7) | glycan array | – | concentration not given, pH 7.4, room temperature | – | lectin binding | 21100 ± 348 RFU |
| CC(C)[C@H](NC(=O)[C@H](C)NC(=O)[C@H](CCC(=O)O)NC(=O)[C@H](CCC(=O)O)NC(=O)[C@@H](N)CO)C(=O)N[C@@H](CO)C(=O)N[C@@H](CCC(=O)O)C(=O)N[C@@H](Cc1ccc(O)cc1)C(=O)N[C@@H](CCC(=O)O)C(=O)N[C@@H](C)C(=O)N[C@@H](CO)C(=O)N[C@@H](CCC(=O)O)C(=O)N[C@@H](CC(=O)O)C(=O)N[C@@H](CC(=O)O)C(=O)N[C@H](C(=O)N[C@@H](CO)C(=O)N[C@@H](CC(=O)O)C(=O)N[C@@H](CCC(=O)O)C(=O)N[C@@H](CO)C(=O)N[C@@H](C)C(=O)N[C@@H](Cc1ccccc1)C(=O)N[C@@H](CO)C(=O)N[C@@H](CCC(=O)O)C(=O)N[C@@H](CC(=O)O)C(=O)N[C@@H](CCC(=O)O)C(=O)N[C@@H](CCC(=O)O)C(=O)O)C(C)C | HTB1/HTA1, H2B residues 30-130 (Saccharomyces cerevisiae, UniProt P02293+P04911) | binding, ITC | – | – | reference: wild-type MBD peptide | affinity decrease | 6 fold |
| CCCCSS(C)(=O)=O | Gabrg2/GABRB2/Gabra1 (Rattus norvegicus, UniProt P18508+P47870+P62813, C260A/C282A/C312A/C319A/C341A/L309C) | covalent modifier, two-electrode voltage clamp | Xenopus laevis oocytes | 0.5 mM, labelled without GABA, with: GABA EC10 | reference: before labelling | GABA current | increased |
| CCOc1ccccc1S(=O)(=O)N1CC(c2nc(-c3ccc(F)cc3)no2)C1 | KCNMA1 with beta-3 subunit | – | HEK293 | 30 µM | – | activity | inactive |
| anthraquinone-neomycin | poly(dA)•2poly(dT) DNA triplex | DNA binding, UV thermal denaturation | – | concentration not given | – | binding site size | 7.5 base triplets |
| CNC(=O)Oc1ccc2c(c1)[C@]1(C)CCN(C)[C@@H]1N2C | Cholinesterase (BCHE, Homo sapiens, UniProt P06276) | inhibitor, immobilized enzyme reactor, HPLC-UV | immobilized recombinant human enzyme | 30 °C, after near-complete inhibition | – | decarbamoylation rate constant k3 | 0.681 ± 0.01 h⁻¹ |

| Molecule | target | assay | test system | setting | scale | measurement | result |
| --- | --- | --- | --- | --- | --- | --- | --- |
| O=c1c(I)ccc2n1C[C@@H]1CNC[C@H]2C1 | α4β2* nAChR, mouse | – | DBA/2J mice, cerebral cortex membranes | intravenous infusion, 0.2 mg/kg/h, 7 days | reference: saline | increase in binding sites | 70.3 ± 10.7% |
| Cc1cc(Oc2cccc(Cn3ccnc3)c2)cc(C)c1Cl | Sterol 14-alpha demethylase (CYP51, Trypanosoma cruzi, UniProt Q7Z1V1) | inhibitor | – | 1 h, two-fold inhibitor over enzyme | – | substrate conversion | 7.5% |
| O=S(=O)(O)Oc1ccc(-c2ccc(Cl)cc2Cl)cc1Cl | sulfatase, human liver microsomes | substrate | – | pH 7.4, 37 °C | – | Vmax | 33.8 ± 3 nmol/min/mg |
| O=[N+]([O-])c1ccc(O[C@H]2O[C@H](CO)[C@H](O)[C@H](O)[C@H]2O)cc1 | lacY (Escherichia coli, UniProt P02920, H35C/N245C) | cytoplasmic cavity closing | DDM | Cu2+ cross-linked | – | reverse rate constant | 254 ± 67 s⁻¹ |
| COC1=C(OC)C(=O)C(CC=C(C)C)=C(C)C1=O | Type II NADH dehydrogenase (Plasmodium falciparum, UniProt Q8I302) | enzyme activity, substrate | – | with: co-substrate 500 µM | – | kcat | 0.015 ± 0.00167 s⁻¹ |
| Nc1ncnc2c1ncn2C1CC2OP(=O)(O)OCC3OC(n4cnc5c(N)ncnc54)C(O)C3OP(=O)(O)OCC2O1 (stereo not shown) | gdpP, residues 84-659 (Bacillus subtilis, UniProt P37484) | substrate, HPLC | – | 100 µM, 37 °C, upper limit if undegraded 24 h, with: enzyme 1 µM | – | degradation rate | 3.5 ± 0.3 mol/min/mol enzyme |
| CC(C)(NC(=O)c1nn(Cc2ccc(F)cc2)c2ccccc12)C1CCN(CC(N)=O)CC1 | CNR1 | calcium mobilization, agonist | CHO-K1 expressing Gαq16 | – | reference: CP55,940 maximum | Emax | 109 ± 6% |
| Clc1cc(Cl)c(-c2c(Cl)cc(Cl)c(Cl)c2Cl)cc1Cl | Ryanodine receptor 1 | [3H]ryanodine binding | rainbow trout, skeletal muscle microsomes | up to 20 µM | reference: DMSO | Emax | 144 ± 9.55% |
| CC[C@H](C)[C@H](NC(=O)[C@H](C)NC(=O)[C@H](CCC(=O)O)NC(C)=O)C(=O)N[C@H](C(=O)N[C@@H](CCCNC(=N)N)C(=O)N[C@H](C(=O)N[C@@H](CC(C)C)C(=O)N[C@@H](CCC(N)=O)C(=O)N[C@@H](CCC(N)=O)C(=O)N[C@@H](CC(C)C)C(=O)N[C@@H](CC(C)C)C(=O)N[C@@H](Cc1ccccc1)C(=O)N[C@H](C(=O)N[C@@H](Cc1c[nH]cn1)C(=O)N[C@@H](Cc1ccccc1)C(=O)N[C@@H](CCCNC(=N)N)C(=O)N[C@H](C(=O)NCC(N)=O)[C@@H](C)CC)[C@@H](C)CC)[C@@H](C)CC)[C@@H](C)CC | HIV-1 integrase and DNA substrate | DNA binding, gel retardation | – | 2 h, 37 °C, with: radiolabelled oligonucleotide DNA | – | minimum DNA retardation concentration | 37 µM |
| B1 | Vitamin K-dependent protein C (PROC, Homo sapiens, UniProt P04070) | substrate, fluorogenic ACC release | – | 30 min, pH 7.4, 37 °C | – | kcat/Km | 3160 ± 80 M⁻¹ s⁻¹ |
| Nc1ncnc2c1nc(Sc1ccc(Cl)cc1)n2[C@@H]1O[C@@H]2CO[P@](=O)(S)O[C@H]2[C@H]1O | cAMP-dependent protein kinase type II-beta regulatory subunit, holoenzyme with catalytic subunit (Prkar2b, Rattus norvegicus, UniProt P12369, S112A) | PKA holoenzyme activation, activator, fluorescence anisotropy | – | – | reference: RIIβ over RIα, higher = RIIβ-selective | selectivity ratio | 3.6 |
| Clc1cc(-c2cc(Cl)c(Cl)c(Cl)c2Cl)c(Cl)c(Cl)c1Cl | Ryanodine receptor 1 | [3H]ryanodine binding | rainbow trout, skeletal muscle microsomes | – | – | EC20 | 11.4 µM |
| O=C(O)c1ccc(-c2cccc(/C=N/NC(=O)c3cc(O)c(O)c(O)c3)c2)cc1 | Gag-Pol polyprotein, reverse transcriptase A502G/D256G (gag-pol, Human immunodeficiency virus type 1 group M subtype B, UniProt P04585, A1089G/D843G) | RNase H activity, inhibitor | HIV-1, A502G and p51 D256G mutant | – | reference: wild type RT | potency loss | 20 fold |
| Clc1ccc(-c2c(Cl)ccc(Cl)c2Cl)c(Cl)c1Cl | Ryanodine receptor 1 | [3H]ryanodine binding | rainbow trout, skeletal muscle microsomes | – | – | EC20 | 18.6 µM |
| N=C(N)NCC(=O)NCC1(Nc2ccccc2)CCN(Cc2ccccc2)CC1 | Neuropeptide FF receptor 2 (Homo sapiens, UniProt Q9Y5X5) | receptor activation, agonist | – | – | – | highest concentration inactive | ≤ 1 µM |
| O=C(CCc1ccccc1)NC1CCOC1=O (stereo not shown) | HTH-type quorum-sensing regulator RhlR (rhlR, Pseudomonas aeruginosa, UniProt P54292) | reporter gene, agonist | Escherichia coli reporter strain | 100 µM | reference: BHL 900 µM | activation | 64% |
| CC1N=C(c2ccccc2F)c2cc(Nc3ccccc3F)ccc2NC1=O (stereo not shown) | Alpha-2C adrenergic receptor (ADRA2C, Homo sapiens, UniProt P18825) | ligand displacement, radioligand | – | 10 µM | – | inhibition | 58% |
